Assay results gathered from unrelated publications.
± gives the spread as reported.
B1: dinB (Escherichia coli, UniProt Q47155); sequence looked up; chain MRKIIHVDMDCFFAAVEMRDNPALRDIPIAIGGSRERRGVISTANYPARKFGVRSAMPTGMALKLCPHLTLLPGRFDAYKEASNHIREIFSRYTSRIEPLSLDEAYLDVTDSVHCHGSATLIAQEIRQTIFNELQLTASAGVAPVKFLAKIASDMNKPNGQFVITPAEVPAFLQTLPLAKIPGVGKVSAAKLEAMGLRTCGDVQKCDLVMLLKRFGKFGRILWERSQGIDERDVNSERLRKSVGVERTMAEDIHHWSECEAIIERLYPELERRLAKVKPDLLIARQGVKLKFDDFQQTTQEHVWPRLNKADLIATARKTWDERRGGRGVRLVGLHVTLLDPQMERQLVLGL
B2: merA 1-69 (Serratia marcescens, UniProt P08662); sequence looked up; chain MTHLKITGMTCDSCAAHVKEALEKVPGVQSAIVSYAKGAAQLALDPGTAPDALTAAVAGLGYKAMLADA
B3: MIF4GD R76A (Homo sapiens, UniProt A9UHW6); sequence looked up; chain MGEPSREEYKIQSFDAETQQLLKTALKDPGAVDLEKVANVIVDHSLQDCVFSKEAGRMCYAIIQAESKQAGQSVFARGLLNRLQQEYQAREQLRARSLQGWVCYVTFICNIFDYLRVNNMPMMALVNPVYDCLFRLAQPDSLSKEEEVDCLVLQLHRVGEQLEKMNGQRMDELFVLIRDGFLLPTGLSSLAQLLLLEIIEFRAAGWKTTPAAHKYYYSEVSD
B4: CRYBB1 1-234 (Homo sapiens, UniProt P53674); sequence looked up; chain MSQAAKASASATVAVNPGPDTKGKGAPPAGTSPSPGTTLAPTTVPITSAKAAELPPGNYRLVVFELENFQGRRAEFSGECSNLADRGFDRVRSIIVSAGPWVAFEQSNFRGEMFILEKGEYPRWNTWSSSYRSDRLMSFRPIKMDAQEHKISLFEGANFKGNTIEIQGDDAPSLWVYGFSDRVGSVKVSSGTWVGYQYPGYRGYQYLLEPGDFRHWNEWGAFQPQMQSLRRLRD
B5: cipA 183-322 (Clostridium thermocellum, UniProt Q06851); sequence looked up; chain GVVVEIGKVTGSVGTTVEIPVYFRGVPSKGIANCDFVFRYDPNVLEIIGIDPGDIIVDPNPTKSFDTAIYPDRKIIVFLFAEDSGTGAYAITKDGVFAKIRATVKSSAPGYITFDEVGGFADNDLVEQKVSFIDGGVNVG
B6: UGT1A9 (Homo sapiens, UniProt O60656); chain GKLLVVPMDGSHWFTMRSVVEKLILRGHEVVVVMPEVSWQLGRSLNCTVKTYSTSYTLEDLDREFKAFAHAQWKAQVRSIYSLLMGSYNDIFDLFFSNCRSLFKDKKLVEYLKESSFDAVFLDPFDNCGLIVAKYFSLPSVVFARGILCHYLEEGAQCPAPLSYVPRILLGFSDAMTFKERVRNHIMHLEEHLLCHRFFKNALEIASEILQTPVTEYDLYSHTSIWLLRTDFVLDYPKPVMPNMIFIGGINCHQGKPLPMEFEAYINASGEHGIVVFSLGSMVSEIPEKKAMAIADALGKIPQTVLWRYTGTRPSNLANNTILVKWLPQNDLLGHPMTRAFITHAGSHGVYESICNGVPMVMMPLFGDQMDNAKRMETKGAGVTLNVLEMTSEDLENALKAVINDKSYKENIMRLSSLHKDRPVEPLDLAVFWVEFVMRHKGAPHLRPAAHDLTWYQYHSLDVIGFLLAVVLTVAFITFKCCAYGYRKCLGKKGRVKKAHKSKTH
Sequence of UniProt P04775 (whole entry, unmodified, looked up): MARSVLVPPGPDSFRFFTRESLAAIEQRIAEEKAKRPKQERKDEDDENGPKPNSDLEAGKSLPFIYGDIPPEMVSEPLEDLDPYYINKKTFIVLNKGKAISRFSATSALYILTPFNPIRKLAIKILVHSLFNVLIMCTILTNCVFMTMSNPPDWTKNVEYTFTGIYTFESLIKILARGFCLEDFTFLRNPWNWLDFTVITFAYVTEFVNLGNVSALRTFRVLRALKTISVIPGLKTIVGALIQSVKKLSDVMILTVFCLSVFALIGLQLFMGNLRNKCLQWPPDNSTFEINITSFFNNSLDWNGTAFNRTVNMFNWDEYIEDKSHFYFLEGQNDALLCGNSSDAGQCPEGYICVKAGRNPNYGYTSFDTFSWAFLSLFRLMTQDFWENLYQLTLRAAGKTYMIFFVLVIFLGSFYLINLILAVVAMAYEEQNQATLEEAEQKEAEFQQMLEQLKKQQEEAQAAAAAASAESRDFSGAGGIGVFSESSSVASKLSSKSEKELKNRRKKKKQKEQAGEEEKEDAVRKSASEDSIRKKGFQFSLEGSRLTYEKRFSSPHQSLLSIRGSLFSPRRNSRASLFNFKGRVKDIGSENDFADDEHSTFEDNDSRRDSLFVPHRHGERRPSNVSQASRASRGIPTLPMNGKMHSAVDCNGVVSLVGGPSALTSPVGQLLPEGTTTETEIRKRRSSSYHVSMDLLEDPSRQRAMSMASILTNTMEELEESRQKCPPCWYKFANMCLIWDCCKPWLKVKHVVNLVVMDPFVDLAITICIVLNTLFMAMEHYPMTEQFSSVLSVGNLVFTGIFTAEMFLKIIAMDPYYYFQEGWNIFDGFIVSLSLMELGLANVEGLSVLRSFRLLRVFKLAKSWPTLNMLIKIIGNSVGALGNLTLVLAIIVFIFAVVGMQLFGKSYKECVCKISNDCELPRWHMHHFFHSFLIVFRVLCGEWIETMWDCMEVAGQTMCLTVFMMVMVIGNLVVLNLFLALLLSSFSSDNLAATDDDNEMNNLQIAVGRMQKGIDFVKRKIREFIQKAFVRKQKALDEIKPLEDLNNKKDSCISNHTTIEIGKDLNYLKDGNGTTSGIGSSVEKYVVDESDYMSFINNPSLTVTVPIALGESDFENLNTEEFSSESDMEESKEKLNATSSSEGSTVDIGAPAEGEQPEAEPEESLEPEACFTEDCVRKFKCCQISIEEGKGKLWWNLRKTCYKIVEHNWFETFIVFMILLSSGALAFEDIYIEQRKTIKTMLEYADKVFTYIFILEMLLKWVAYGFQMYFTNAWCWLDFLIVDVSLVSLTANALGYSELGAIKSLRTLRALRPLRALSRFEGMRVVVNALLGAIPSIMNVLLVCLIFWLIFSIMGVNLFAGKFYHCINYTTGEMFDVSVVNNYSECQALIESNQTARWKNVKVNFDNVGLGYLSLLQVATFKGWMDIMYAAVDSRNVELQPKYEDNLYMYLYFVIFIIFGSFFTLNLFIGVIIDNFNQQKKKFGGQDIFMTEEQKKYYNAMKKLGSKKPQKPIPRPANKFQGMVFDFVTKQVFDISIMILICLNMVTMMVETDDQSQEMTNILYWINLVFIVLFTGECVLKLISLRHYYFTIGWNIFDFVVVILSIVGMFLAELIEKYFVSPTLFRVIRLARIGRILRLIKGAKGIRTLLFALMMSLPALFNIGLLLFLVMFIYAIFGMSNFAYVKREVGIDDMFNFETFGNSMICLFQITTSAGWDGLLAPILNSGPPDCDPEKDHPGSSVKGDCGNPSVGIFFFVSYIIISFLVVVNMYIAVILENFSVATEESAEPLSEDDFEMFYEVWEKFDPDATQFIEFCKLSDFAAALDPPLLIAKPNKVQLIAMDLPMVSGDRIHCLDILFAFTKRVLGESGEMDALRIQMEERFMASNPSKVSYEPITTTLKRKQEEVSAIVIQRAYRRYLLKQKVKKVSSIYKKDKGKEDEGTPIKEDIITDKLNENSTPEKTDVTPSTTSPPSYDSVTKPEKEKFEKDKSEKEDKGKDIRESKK
Sequence of UniProt Q14493 (whole entry, looked up): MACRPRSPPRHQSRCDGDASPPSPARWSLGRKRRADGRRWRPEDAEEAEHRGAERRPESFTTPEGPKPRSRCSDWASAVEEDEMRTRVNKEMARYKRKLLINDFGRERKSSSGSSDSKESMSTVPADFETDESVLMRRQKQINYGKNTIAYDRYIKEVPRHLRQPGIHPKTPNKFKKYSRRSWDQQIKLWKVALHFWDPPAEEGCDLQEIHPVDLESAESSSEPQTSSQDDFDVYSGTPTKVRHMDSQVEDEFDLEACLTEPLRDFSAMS
Sequence of UniProt P0A988 (whole entry, looked up): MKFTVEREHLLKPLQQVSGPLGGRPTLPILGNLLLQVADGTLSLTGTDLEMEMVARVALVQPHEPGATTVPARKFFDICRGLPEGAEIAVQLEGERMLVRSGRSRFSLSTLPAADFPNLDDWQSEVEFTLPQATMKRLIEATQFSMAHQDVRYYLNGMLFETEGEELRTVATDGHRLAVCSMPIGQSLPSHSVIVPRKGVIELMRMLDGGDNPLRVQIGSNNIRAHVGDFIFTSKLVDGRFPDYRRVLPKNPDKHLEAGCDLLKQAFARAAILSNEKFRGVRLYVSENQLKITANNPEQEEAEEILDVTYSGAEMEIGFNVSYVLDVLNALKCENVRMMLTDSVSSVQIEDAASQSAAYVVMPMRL
Sequence of UniProt A3DH67 (whole entry, looked up): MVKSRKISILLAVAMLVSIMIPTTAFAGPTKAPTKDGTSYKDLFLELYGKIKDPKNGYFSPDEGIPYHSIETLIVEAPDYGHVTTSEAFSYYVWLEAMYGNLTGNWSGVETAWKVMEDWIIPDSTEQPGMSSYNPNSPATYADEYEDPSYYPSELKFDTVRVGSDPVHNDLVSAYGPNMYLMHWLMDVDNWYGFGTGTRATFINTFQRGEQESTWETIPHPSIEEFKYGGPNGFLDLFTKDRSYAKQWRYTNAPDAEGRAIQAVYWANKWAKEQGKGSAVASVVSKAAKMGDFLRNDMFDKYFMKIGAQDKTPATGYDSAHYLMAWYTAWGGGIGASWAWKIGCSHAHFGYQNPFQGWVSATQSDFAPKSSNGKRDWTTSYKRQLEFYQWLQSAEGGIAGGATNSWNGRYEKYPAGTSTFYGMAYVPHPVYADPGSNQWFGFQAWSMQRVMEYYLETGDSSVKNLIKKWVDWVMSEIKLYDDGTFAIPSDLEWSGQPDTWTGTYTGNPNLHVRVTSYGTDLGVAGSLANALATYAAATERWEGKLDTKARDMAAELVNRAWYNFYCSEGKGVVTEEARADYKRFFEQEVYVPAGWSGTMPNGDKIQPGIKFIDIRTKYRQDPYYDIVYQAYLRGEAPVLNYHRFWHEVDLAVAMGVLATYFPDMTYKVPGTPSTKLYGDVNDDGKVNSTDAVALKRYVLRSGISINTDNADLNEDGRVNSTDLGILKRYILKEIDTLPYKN
Sequence of UniProt P05813 (whole entry, looked up): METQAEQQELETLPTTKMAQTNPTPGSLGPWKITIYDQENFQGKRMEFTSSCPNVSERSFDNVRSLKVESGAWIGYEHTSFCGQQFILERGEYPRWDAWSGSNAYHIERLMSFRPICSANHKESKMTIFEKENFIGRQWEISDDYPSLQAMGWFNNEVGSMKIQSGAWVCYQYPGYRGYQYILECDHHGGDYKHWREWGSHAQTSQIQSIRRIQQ
Sequence of UniProt P0A6H1 (whole entry, looked up): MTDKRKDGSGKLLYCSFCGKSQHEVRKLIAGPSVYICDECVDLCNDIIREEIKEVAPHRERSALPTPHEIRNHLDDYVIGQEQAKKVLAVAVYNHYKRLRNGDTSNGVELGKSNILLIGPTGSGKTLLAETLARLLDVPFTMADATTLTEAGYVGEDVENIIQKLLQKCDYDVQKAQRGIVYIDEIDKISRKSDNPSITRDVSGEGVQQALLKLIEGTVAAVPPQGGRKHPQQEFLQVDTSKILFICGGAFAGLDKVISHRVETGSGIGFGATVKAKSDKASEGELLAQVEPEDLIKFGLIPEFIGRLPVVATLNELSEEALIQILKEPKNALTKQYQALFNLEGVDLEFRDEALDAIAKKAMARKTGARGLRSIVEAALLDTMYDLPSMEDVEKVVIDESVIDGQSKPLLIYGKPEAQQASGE
Sequence of UniProt P14780 (whole entry, looked up): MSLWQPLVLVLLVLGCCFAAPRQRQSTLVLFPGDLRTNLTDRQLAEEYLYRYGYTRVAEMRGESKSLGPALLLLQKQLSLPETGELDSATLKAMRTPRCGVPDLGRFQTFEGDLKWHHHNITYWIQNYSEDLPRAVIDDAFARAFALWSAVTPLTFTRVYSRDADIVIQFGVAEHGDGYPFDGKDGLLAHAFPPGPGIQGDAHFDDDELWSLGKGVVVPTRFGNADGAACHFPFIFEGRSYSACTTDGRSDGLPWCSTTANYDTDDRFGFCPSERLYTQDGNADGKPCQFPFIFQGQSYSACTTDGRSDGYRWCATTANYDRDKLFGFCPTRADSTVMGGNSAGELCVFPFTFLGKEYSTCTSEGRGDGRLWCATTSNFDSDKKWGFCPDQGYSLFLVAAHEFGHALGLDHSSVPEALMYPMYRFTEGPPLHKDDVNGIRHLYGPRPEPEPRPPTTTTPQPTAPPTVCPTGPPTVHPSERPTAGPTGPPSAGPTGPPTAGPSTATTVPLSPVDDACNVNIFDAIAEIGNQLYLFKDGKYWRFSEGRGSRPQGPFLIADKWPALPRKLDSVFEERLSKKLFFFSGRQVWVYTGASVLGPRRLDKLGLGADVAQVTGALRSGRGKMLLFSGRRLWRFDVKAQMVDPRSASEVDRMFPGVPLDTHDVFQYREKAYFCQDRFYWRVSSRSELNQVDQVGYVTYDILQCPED

The inhibition of `CIKVAVS` is reported as 0% (peptide, human polyclonal IgM RF SOR; concentration not given, 5 µg/mL mAb II-481 coated, added: RF at 50% max binding concentration).
The koff of `B1 (dinB)` is reported as 0.00713 s⁻¹ (dnaN 1-366 (Escherichia coli, UniProt P0A988); SPR; pH 7.4, NaCl 150 mM).
The koff of `B2 (merA 1-69)` is reported as 144 s⁻¹ (MerB 1-212, Hg(II) bound Cys96/Cys159 (Serratia marcescens, UniProt P77072); stopped-flow fluorescence).
`BicD coiled-coil domain 1 (Drosophila melanogaster)` has a speed of 0.4 µm/s (DYNC1H1/DYNC1I2/DYNC1LI2/DYNLT1/DYNLRB1/DYNLL1 (Homo sapiens); single-molecule TIRF).
For `ANK2 fragment (Homo sapiens)`, the koff was 0.0032 s⁻¹ (SCN2A 1080-1203 E1111A, CK2 phosphorylated (UniProt P04775); SPR; pH 7.4, 25 °C, NaCl 150 mM).
`B3 (MIF4GD R76A)` gave a koff of 0.000549 s⁻¹ (SLBP, phosphorylated, multiple sites (Homo sapiens, UniProt Q14493); SPR; pH 7.4, 25 °C, NaCl 150 mM).
Under “peptide cleavage rate”, `ClpP mature (Escherichia coli, UniProt P0A6G7)` is recorded as 40 fold (clpX (Escherichia coli, UniProt P0A6H1); peptide cleavage; added: ATPγS; relative to: ClpP alone, higher = faster cleavage).
For `MAPT S262E (Homo sapiens)`, “EB1 comet intensity” read 71 a.u. (MAPRE1 (Homo sapiens, UniProt Q15691); TIRF microscopy; 75 nM; higher = more EB1 at ends).
For `B4 (CRYBB1 1-234)`, “subunit exchange rate” read 0.0348 ± 0.0052 min⁻¹ (CRYBA1, Alexa Fluor 488 label (Homo sapiens, UniProt P05813); FRET; pH 7.5, 37 °C, 100 mM NaCl).
For `B5 (cipA 183-322)`, “molecule per partner” read 0.924 ± 0.002 (celS dockerin module 673-739, 15N label (Clostridium thermocellum, UniProt A3DH67); ITC; pH 7.5, 298 K, KCl 100 mM, single-site model, added: CaCl2 5 mM).
`TIMP2 N-terminal domain S4P/I35V/S68N/V71I/H97R` gave a Ki of 0.15 nM (MMP9 catalytic domain, no fibronectin 107-215 (Homo sapiens, UniProt P14780); fluorogenic substrate cleavage, inhibitor, enzyme inhibition assay; apparent).
`Neo1 S1314A/F1315A (Mus musculus)` — result for “PLA puncta frequency decrease”: 2.6 fold (Cyfip1 (Mus musculus, UniProt Q7TMB8-1); proximity ligation; mouse hippocampal neurons; relative to: wild-type Neo, higher = greater decrease).
With `LIYWAST` the inhibition was 5% (peptide, human polyclonal IgM RF WEAK; concentration not given, 5 µg/mL mAb II-481 coated, added: RF at 50% max binding concentration).
With `B6 (UGT1A9)` the Vmax/Km was 123 µL/min/mg (O=c1cc(-c2ccccc2)oc2cccc(O)c12; steady-state kinetics; pH 7.4, 37 °C).

For quick reference, copied from above:
`Neo1 S1314A/F1315A (Mus musculus)` — result for “PLA puncta frequency decrease”: 2.6 fold (Cyfip1 (Mus musculus, UniProt Q7TMB8-1); proximity ligation; mouse hippocampal neurons; relative to: wild-type Neo, higher = greater decrease).
With `LIYWAST` the inhibition was 5% (peptide, human polyclonal IgM RF WEAK; concentration not given, 5 µg/mL mAb II-481 coated, added: RF at 50% max binding concentration).
